Assay results collected from several papers.
Parts stem from different laboratories: compare values within a part only. Substitutions count along the parent as printed.

Set 1 — target: CCND1, cyclin fold, Cln2 fusion (human); technique: yeast growth competition, sequencing; medium: yeast; notes: weak parent motif; baseline: not given; direction: higher = stronger binding; measurement: normalised enrichment score
Starting sequence: WEE1 docking peptide (human); HKTFRKLRLFDTP
T12S: 0.235
T3D: -0.0596
D11P: 0.504
K2Y: 0.0817
R5D: 0.406
K6H: -0.151
L7M: -0.776
T12D: 0.675
K6C: 0.348
H1W: 0.672
D11E: -0.189
F10K: -0.868
P13F: 0.226
R5L: 0.467
F4I: 0.347
R8C: 0.565
F10I: -0.161

Set 2 — technique: RNA Bind-n-Seq; form: RNA; medium: in vitro; concentration: 365 nM; baseline: no-protein control; direction: higher = stronger binding; measurement: RBNS enrichment (R)
Target: RNA binding protein fox-1 homolog 2, RRM domain, GST-SBP tag (RBFOX2, Homo sapiens, UniProt O43251-10, residues 100-194)
Notes: natural RNA segment, single round, ends assumed
Shared flanks, not repeated: GGGAGUUCUACAGUCCGACGAUC … UGGAAUUCUCGGGUGCCAA
Residues (chain): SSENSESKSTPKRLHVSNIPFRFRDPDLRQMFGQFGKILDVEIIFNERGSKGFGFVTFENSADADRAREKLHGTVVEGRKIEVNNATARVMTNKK
CAUUUCUCUUCCCUGUGGCACUUGACAUUUUAAUUGUCUUAAAGUUUUUGAAGUACAUCUUCUGGCCCCUUGAGUACUGCCAGAGGCAAAAGAUGUUUGUUUCUUAUUCA: 0.526
GUGCAUUUUAUACUGUAUUAAAUAUGGAGAUACUUCUAAUGCCUCUCUAAAAUUAAAUUUUACAUAAAAGUUAGUUUUAUUCACCUUUAGGCUUUCCAAGUGAAUUGUGA: 2.71
UAUUGGUGAGUUGCCAAAGAAGCAAUACAGCAUAUCUGCUUUUGCCUUCUGUUGUUUAUCUUACCUGCAGAUAUUAAGAAUGUAUGCAUUAUGUAAAAUGCUCAAUUAUA: 0.346
UAUUUAUUGAUUUGUAACAACUUGUUUUUAACCAAACUUUGUAGCAUGGAAAAAAUUUUCCAUCCACAAAUACAAACAUGAAUAAAUACAUUCAGAAUGUUGGCACCAUG: 0.327
CCUUUAUCUUGGAUUUCUAAAGUUUUUCCCCAAUAUUGGGAAUGGUGAGGGUGGGGAUGAGAGACUCUCUGAACAAUUCUUGCAGAACCAGUGACAAUCUUAUGAAUAUA: 0.384
UUCUCACCACAACAAAAGCAACUAAUUGGAAACUAGAUGUGUUCAAUAAUAGAUUUCCUCUUUUUUGGCAUGCUUUUUAGAUUUUUUUUCAUUUUGUAAAAUCUCAGUUA: 2.28
GUGUUCGGGGCUCCCACCAUCUGUCCAGCCUUCUUGGCCACCAGCUCUGUCCCUCCUUCCUAGAUAGGGAUGAUCAGAAGGUAGCCAUCUCUUCUUGCAGCUGCCUGGCC: 0.422
GGCUAUCCGAGACGCUGUCAGCCAUUUUGCUCUGUUCCUGGUAGUGUGCAGACCUCGGGGUUGAGAACGGGGUGAAGAUGAAUGUCCUUAGUGUUGGUGCAGCACCAGCC: 0.9
UCCUUCGAUAAUAUGAAACAUUAAUUUACAAGGACCCGUUAGGGCUUCAAUGAUGCUGAGUCUGGAAAAGGGGAGGAGACCCUUGGGAGGACUCCAGGCAGCUGUGCUCC: 0.649
AAACAAGCUGCUCUUUAUAAUAUGCACCUUUUAAAAAAUUAGAAUAUUUUACUGGGAAGACGUGUAACUCUUUGGGUUAUUACUGUCUUUACUUCUAAAGAAGUUAGCUU: 0.448
AGCCUGUUUGGGGAGACCACCCUGUACCCGUGACUUUCGUUUUUAAUAAUAAUAAUAAUAAUAAUAAAAGAUGUCACUUCUGGGGCUACGGAGGUGGGAGUGCACCGGCG: 1.47
UUAAGCAACCCACAAAUUUCUUCUCAGAUUUGUUUCCUAGAUUACUUAUGAUACUCAUCCCAUGUCUCAAUAAGAGUGUCUUUUCUUUCUGGAUGUGUUCUCUUACUCCC: 0.429

Set 3 — technique: RNA Bind-n-Seq; form: RNA; medium: in vitro; concentration: not given; baseline: input RNA pool; direction: higher = stronger binding; measurement: bound/input enrichment
Target: RING finger protein unkempt homolog, zinc fingers 1-6, GST-SBP tag (UNK, Homo sapiens, UniProt Q9C0B0, residues 30-357)
Chain of UniProt Q9C0B0 (30-357, looked up): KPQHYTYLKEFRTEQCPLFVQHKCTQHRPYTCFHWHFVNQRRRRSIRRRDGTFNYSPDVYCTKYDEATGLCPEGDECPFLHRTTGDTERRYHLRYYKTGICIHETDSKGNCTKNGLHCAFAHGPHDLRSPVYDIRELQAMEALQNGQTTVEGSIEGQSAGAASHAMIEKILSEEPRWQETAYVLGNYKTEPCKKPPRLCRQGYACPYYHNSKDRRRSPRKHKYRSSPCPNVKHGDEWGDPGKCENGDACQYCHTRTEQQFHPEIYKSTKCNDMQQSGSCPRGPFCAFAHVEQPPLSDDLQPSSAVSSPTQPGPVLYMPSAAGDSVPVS
Notes: RNA with constant flanks, human and mouse sites, ends assumed
Shared flanks, not repeated: GGGAGUUCUACAGUCCGACGAUC … CAACAGAGGAUUGAGCAUCA
ACAGUUACUUAAUUUCUAGAGUUCAGGCCUCUGGGAUCAACCCCAGACUGGGCCAGAAUGUUAGUGAAGGUUUUAUUGUGCCCGGUUGGAGGAUAACGUUCUUUGGGUACUUUUUGUGGG: 0.281 ratio
GAUAGAACUGUAUGGCCCUUGAUAAGAAUCUAUCGGGGUGGCUUUCUUCUGAUUGAAUUCCUUUUUCUACUGGGCAUCAACACAUAUGGUUGGAGACAAGCUGGAGUAAAUCAUGUCCUC: 0.231 ratio
UAGCAGGUAAGGCCUCUCAGUGUGAUGAGCUGUUGCCAAAACUCAAUGUCUGCCCCUUCGCCUAAGGUCUCAAAGACAAACCAACAACUCCAAAGUCCAUGCAGGCUAACCUUAUAUAGU: 0.183 ratio
UUCAGGCUCAUUUGUACUCUCUUCCCCUCUCAUCGUCAUGGUCAGGCUCUGAUACCUGCUUUUAAAAUGGAGCUAGAAUGCUUGCUGGAUUGAAAGGGAGUGCCUAUCUAUAUUUAGCAA: 0.617 ratio
GACUUGGUACAUUUUGAUUUUAUGGAUCCACCAGCUCCUGAAACUCUGAUGAGAGCCCUGGAACUUUUGAAUUACCUGGCUGCUUUAAAUGAUGAUGGAGAUCUGACUGAAUUGGGAUCC: 0.19 ratio
GGACCGACUGUGUACGACCAUGCACAUCUUGGCCAUGCUUGCUCCUAUGUUAGAUUUGACAUUAUCCGGAGGAUCCUGACCAGAGUGUUUGGAUGCAAUGUGGUCAUGGCGAUGAGCAUU: 0.156 ratio
UGCUGCAUCCUGCACAGCAGGGUUCAGUUUCAUGUAUCUUUGUCUUUUCCUCUAGAACCUGCCUUUUUCAAAUAUCCCUGCCUUUUCCCACCUGGAAACAUAUACUGUAUGCGAAAGAGU: 0.351 ratio
GGUGGAAGCAUGCUUAAAGCUCUGCCUUUGAAGAGUAGUCUUACUCCAAGUUCUCAAGAUGACAGCAACCAGGAAGAUGAUGGCCAAGAUAGCUCUCCAAAGUGGCCAGAUUCUGGUUCA: 0.371 ratio
ACCCAGGCUGACGAGGACCCUCAGAUGUCCAUGGUUGAAGACUGUCAUGCGUCAGAACAUAAUAGCCCUAUCUCCUCCGUUCAGUCUCACCCCAGCCAGUCAGUCCGUUCGGUCAGCAGU: 0.133 ratio
GGAAGCCUAAAGUCUGUGGAAGCUAUUCUAGAAGAAAGCACUGAAAAACUCAAAAGCUUGUCACUGCAGCAACAGCAGGAUGGAGAUAAUGGGGACAGCAGCAAAAGUACUGAGACAAGU: 0.374 ratio
CCAUUCUCUUAGUGAUGGGUUGGAUGAAGUCCAAAAAGCAGAAAUGAAAGCCUACAUGGAAUUAGUCAACAAUAUGCUGCUGACUGCAGAGGUAUAAGAGGAUAAGGCUUGAGAUCAGAC: 0.287 ratio

Set 4 — technique: protein binding microarray; form: double-stranded DNA, one strand shown; medium: in vitro; concentration: not given; baseline: not given; direction: higher = stronger binding; measurement: E-score
Target: Histone acetyltransferase KAT6A, winged helix 2, GST fusion (KAT6A, Homo sapiens, UniProt Q92794, residues 85-181)
Notes: 8-mer, flanks averaged, mean of 2 arrays, mostly near background
Target sequence (chain): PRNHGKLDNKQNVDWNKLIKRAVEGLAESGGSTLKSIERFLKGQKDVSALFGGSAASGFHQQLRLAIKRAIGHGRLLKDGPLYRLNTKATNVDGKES
AGCAGATA: -0.0622
ATGCGGAA: 0.0327
ACTGCAAG: -0.0896
GCGTCGCA: 0.216
GACGCATA: -0.0916
CAAACGCG: 0.0556
AAGTGAAT: 0.0662
CACCACCC: 0.0152
ACGTCTCG: -0.0694
TAATACAA: 0.105
ACTTATTC: -0.0828
CGTTATAC: -0.0362
TCGCCAGA: 0.168
CCAAGGCC: -0.0387
CACTGAGC: 0.031
GCCAAATA: -0.119
CCGATCTA: 0.0215

Set 5 — technique: competition protein-binding microarray; form: double-stranded DNA, one strand shown; medium: in vitro; concentration: 2 µM; with: Cbf1 competitor, 0.05 µM; direction: higher = stronger binding; measurement: fluorescence intensity; shared flanks, not repeated: … GTCTTGATTCGCTTGACGCTGCTG
Target: Phosphate system positive regulatory protein PHO4, full length, GST-tagged (PHO4, Saccharomyces cerevisiae, UniProt P07270, residues 1-312)
Notes: whole 60-bp probe, lowest competitor level
Construct (chain): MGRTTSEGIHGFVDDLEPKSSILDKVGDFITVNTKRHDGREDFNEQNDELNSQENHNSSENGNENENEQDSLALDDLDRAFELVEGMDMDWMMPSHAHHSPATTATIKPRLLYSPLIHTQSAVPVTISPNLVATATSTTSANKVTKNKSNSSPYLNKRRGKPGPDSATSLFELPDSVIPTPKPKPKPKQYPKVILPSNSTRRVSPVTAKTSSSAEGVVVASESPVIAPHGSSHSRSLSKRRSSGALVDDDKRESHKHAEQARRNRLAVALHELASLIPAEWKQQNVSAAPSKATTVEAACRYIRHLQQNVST
CGCCAGCAGTGAAACCTCGTGGGACAAAGCCGGTTC: 10300 a.u.
TATTTTCTCAGCCGTCACGTGCGATAAAAAAGTCAA: 16100 a.u.
AGGCGAATTCTTGTCATCGTGCCGACAGCAAGCCAT: 8660 a.u.
GTACTTGATTTAACCTGCGTGCTTTAAGTCGGTAAA: 9560 a.u.
CTTCTGTAAATTTGTCGTGTGGGTGGACGCGCCCCG: 4950 a.u.
TGCGCAACAACTTGGTAGGTGGGTGTATGTCTAGAA: 4770 a.u.
TGCGCAACAACTTGAGGGGTGGGTGTATGTCTAGAA: 5020 a.u.
AAAGCGGTAATTTGTCTAGTGGGTGCAGATATCTAT: 4030 a.u.
CCTCAGGAGCGCCGCCATGTGGGATGGAATAGCACA: 10300 a.u.
CTAACGAAGGTTTGATAAGTGGGTGACAAGCCAAGT: 4070 a.u.
CGTCCTAGTGATTGTTCAGTGGGTGCCATGAGGAAG: 6100 a.u.
AAAGCGGTAATTTGACTGGTGGGTGCAGATATCTAT: 4270 a.u.
GCATTGCATTGCTGGCACGTTTTTGTGCAGCATGAA: 14900 a.u.
TGCGCAACAACTTGGCCAGTGGGTGTATGTCTAGAA: 4400 a.u.
AAAGCGGTAATTTTTCACGTGGGCTCACATATCTAT: 13900 a.u.
AATTTCGGAGAATCTCACATGCCACTGAAGATTAAA: 6590 a.u.
AAAAAAATACATAGTAGCATGACAAACTAATAATAA: 5000 a.u.
GCCGGACCAGCTTGGCCCGTGGAATTGTCTATATTG: 5260 a.u.
TTTCTCTTTGAGGTTCACGTTCACTTCTGCTACCAT: 7240 a.u.
AGATTGCCTCCCTGACATGTGGTGGCAGAAAACCTG: 9720 a.u.
CGGGGTTAAGTTTGAGACGTGGGTGGCTTGCAGCAG: 6620 a.u.
GATGAGGCCCTTATGTACGTGCAAATATATGTGCGA: 7190 a.u.

Other studies, line by line
PhoQ, residues 284 288 289 292 302 303 GLASVI
fold induction (PhoP, residues 12 14 15 18 19 TQAIL (Escherichia coli, UniProt P23836); Sort-seq, refers to: YFP reporter; E. coli; PhoQ-PhoP variant library, with: 10 µM Mg2+; baseline: high Mg2+ state, higher = stronger signaling): 21
